Measured values gathered from unrelated publications.
Numbered parts are unrelated; each lists some results of a single study.
UniProt Q9C0B0, sequence (30-357, looked up): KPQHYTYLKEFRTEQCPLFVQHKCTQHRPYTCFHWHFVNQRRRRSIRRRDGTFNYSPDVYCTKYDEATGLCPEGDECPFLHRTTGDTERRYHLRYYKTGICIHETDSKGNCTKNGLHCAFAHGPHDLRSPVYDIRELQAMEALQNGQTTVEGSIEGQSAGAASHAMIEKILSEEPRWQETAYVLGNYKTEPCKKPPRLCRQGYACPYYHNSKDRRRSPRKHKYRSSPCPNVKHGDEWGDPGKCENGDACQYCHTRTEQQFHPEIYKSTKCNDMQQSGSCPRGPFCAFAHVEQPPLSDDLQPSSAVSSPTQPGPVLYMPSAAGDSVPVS

Block 1
Target: Hepatocyte nuclear factor 3-alpha (Foxa1, Mus musculus, UniProt P35582, residues 1-468, full length assumed)
UniProt P35582, sequence (whole entry, looked up): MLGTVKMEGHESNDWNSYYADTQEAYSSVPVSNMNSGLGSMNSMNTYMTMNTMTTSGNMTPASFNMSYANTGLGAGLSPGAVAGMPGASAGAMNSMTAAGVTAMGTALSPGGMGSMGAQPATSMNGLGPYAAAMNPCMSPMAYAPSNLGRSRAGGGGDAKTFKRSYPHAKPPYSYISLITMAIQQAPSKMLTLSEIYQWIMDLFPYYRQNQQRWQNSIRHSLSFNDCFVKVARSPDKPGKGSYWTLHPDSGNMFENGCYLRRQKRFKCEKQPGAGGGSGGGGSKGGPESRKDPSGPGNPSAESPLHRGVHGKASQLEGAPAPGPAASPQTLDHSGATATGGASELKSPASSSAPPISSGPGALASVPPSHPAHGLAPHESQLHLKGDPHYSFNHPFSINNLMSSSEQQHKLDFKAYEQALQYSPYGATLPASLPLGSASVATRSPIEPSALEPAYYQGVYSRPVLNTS
Method: EMSA with sequencing
Form: double-stranded DNA, one strand shown
Medium: in vitro
Concentration: 10 and 20 nM
Notes: whole designed probe, mean of two concentrations, ends assumed
Reference: negative control set to 0
Direction: higher = stronger binding
All sequences stand within: GTGAGCGGTGCCCATTGATGGGGAAC … TTTCACTGGGATCGTGGGGAC
Oligonucleotide | normalised bound fraction
ATCTTCCCCCTCTTCCTTGCCCCACCAGCTCACCTTCCCGGGTTATTTGCACAAAGGAAAATAAATAAAGCCGGCATTCGTTAACCCTCTTCACGCGCATACTGCTGTTTGCTCTGCATCTAACATGGTCCTTACGCGACGCCAGGCTCCGGGAGAGCAAAGCACCGTGTCAGGCGCATGATCCGGGCTCGCC | 0.385 ratio
TGAGGCCATTAATTATAGTGAGACGTATTATAAGATTATTTTCTTCTCCTTTGAGTACTATTTTCATCTCCTTCAAGTTTTTTCTTTCCTGTTTGTTTATTCTGTTCTCTGTGCTTCATGACAGGTCCTTTCCCACATGGCTTGATGTGTGGCTGGCTGTTCATTTTTAGGAGTGAGGCATTATAAACAGGCC | 0.384 ratio
CACCGCGCTCGCACGGCTTTGTCCGTGCTACAAAGCAGCCTGTTAAACTATTGGAACTAATGCGCCGCAGCTGCGCGAGTGACTTCTGCTGCTTATGTACATAAGGGGGAGGGCTAAAGTCCTGTAACCATCAGATGCCTGCTGCTGGGTTGTTTGGCTAGTCTTTCCATTTGCTTATTCCTGAATCCAAAGG | 0.311 ratio
TTCTGAAGAGTCAGAGAAGTTCTGAGTCACCTGGAGATCATTCCAGGAGGAATAAAAGACTTCTACATGTAACCAGCTTACATCATATCCAAAATAAACACAAGGAATATTTAAGCATGACCAAAATGCTGTAATTATTTAATGACAAAACCACATATAACAGGAGGTGGGGACAGTTATTATAAGAACTGGC | 0.281 ratio
AGCAAGGCTTTAAAAGTGAGGTCTTTCAGTTTAGATGCAAAAAGGGTGGTTCTGTTGAGTCAACCCAGCTATTTCGTTTCGTAATACTACATAGTAAACACCTAGAATGAGGTAGCTGGAGTGCAAATCTAAATGGCTTGTGACAGTTAAGGAAGTACATAGGCAACAGTTACTGGTTTTCTTGATGCAGCTG | -0.0016 ratio
TCATTAATTAAACTGACATTTAAATTTAATTTGGAAGTAATGCAATTGATGGTAGATTACTTTAAATTGAGTACAGTATTCATAGGTATATTCTTGTTTACTTAAAATATAAAACATAGTAATATACAGGAGAGAAAAAAGAAATTTTTTTTAAGCTTATAAAAGGATTTATGGGCTGGGCGCAGTGGCTCAC | 0.39 ratio
GCAAAACTCCTACTGTTGATGGCTGAATCCTATCAGGAAATTTTGATTTTACTGAGACAAAGTGCCTGCTACAAAGGACTCAGAAGTCTACTAAGTAAACAGGAAACTGGGACAGAATTCAGTCAAGAACTTAGACAGCTCATTGGCCTTTTAAGCCCAACGGTCTATCAGGAAGTAGAAAAGCAGAAACTAC | 0.443 ratio
GTGTGTGCGCGCGCGTGTGTGTGTGTTTTCTTAAGCCGGGCTATTCAAACCCTGCTGCAATTCTCCGGTAAAGGGGCACAATGATTCATCGTTTATTTGCATTAGATTGCAAACGGCGCGGTTCGCGCACTTTGCAGCCGGCCCGGTGGAGCAGCCAGTGCCGGATTTCTCCCTTTTTTTGCAGATCTGCAGA | 0.446 ratio

Block 2
Target: PABPC1L2, full length, GST fusion (mouse, UniProt A0ABA7IW68)
Method: RNAcompete
Form: RNA
Medium: in vitro
Concentration: 20 nM
Notes: 7-mer, probes averaged, single round
Reference: mean of 7-mers
Direction: higher = stronger binding
Residues (chain): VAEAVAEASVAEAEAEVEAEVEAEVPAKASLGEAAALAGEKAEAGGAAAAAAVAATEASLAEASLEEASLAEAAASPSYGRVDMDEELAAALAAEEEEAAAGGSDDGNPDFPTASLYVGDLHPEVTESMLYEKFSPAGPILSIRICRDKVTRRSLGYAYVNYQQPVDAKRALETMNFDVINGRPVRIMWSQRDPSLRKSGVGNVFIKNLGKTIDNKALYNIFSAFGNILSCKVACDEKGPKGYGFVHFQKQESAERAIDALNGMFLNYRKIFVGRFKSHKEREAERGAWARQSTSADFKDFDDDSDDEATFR
Oligonucleotide | 7-mer Z-score
AUACCCA | -0.302
UCCCAGC | -0.195
CGGAGCU | -0.00652
CCAAAAU | 1.09
UAGCCAU | -0.166
CACUUAU | -0.188
CAAUAGA | 0.189
AUCAGGG | 0.215
UUAUCCG | -0.273
UCAACAA | 0.254
GGAGAUA | 0.095
GCGGUGU | 0.0787
UCGUACG | -0.24
ACCCGCU | -0.351
GCAACCA | 0.0406
GCACGUA | -0.0573
GACUAGG | -0.0373
UCAUUGA | -0.206
CGUUGCU | -0.291
AGGAAAC | 0.327
GAGUCGA | -0.351
AUUUGCC | -0.364

Block 3
Target: Prothrombin, mature alpha-thrombin (F2, Homo sapiens, UniProt P00734)
Method: aptamer microarray, sandwich
Form: DNA with 2'F-ANA
Medium: in vitro
Concentration: 200 nM
Notes: whole 15-mer aptamer, many near background
Together with: Cy3 exosite-II aptamer, 400 nM
Direction: higher = stronger binding
Oligonucleotide: GGTTGGTGTGGTTGG
Modification | mean fluorescence intensity
2'F-ANA at 1 2 4 5 6 9 10 11 13 15 | 78.3 a.u.
2'F-ANA at 8 9 10 11 12 13 14 15 | 116 a.u.
2'F-ANA at 1 2 3 5 7 12 14 15 | 64.6 a.u.
2'F-ANA at 4 5 6 9 10 11 12 13 14 | 79.4 a.u.
2'F-ANA at 1 2 3 5 7 9 11 12 13 14 | 61.4 a.u.
2'F-ANA at 1 2 3 4 7 8 10 11 13 | 55.4 a.u.
2'F-ANA at 3 4 5 7 9 10 11 12 14 15 | 51.6 a.u.
2'F-ANA at 1 3 4 7 10 12 14 15 | 56.4 a.u.
2'F-ANA at 1 4 5 8 11 12 13 15 | 65.5 a.u.
2'F-ANA at 5 6 7 8 10 11 15 | 47.3 a.u.
2'F-ANA at 2 4 10 12 | 150 a.u.
2'F-ANA at 2 3 7 14 15 | 450 a.u.
2'F-ANA at 1 4 8 9 10 11 12 14 | 47.1 a.u.
2'F-ANA at 1 3 5 10 13 14 15 | 50.1 a.u.
2'F-ANA at 3 5 6 11 12 13 15 | 145 a.u.
2'F-ANA at 2 3 6 10 14 | 282 a.u.
2'F-ANA at 2 4 5 9 12 13 14 | 49.2 a.u.
2'F-ANA at 3 4 5 6 7 8 11 12 14 15 | 56.3 a.u.

Block 4
Target: RNA binding protein fox-1 homolog 2, RRM domain, GST-SBP tag (RBFOX2, Homo sapiens, UniProt O43251-10, residues 100-194)
Method: RNA Bind-n-Seq
Form: RNA
Medium: in vitro
Concentration: 365 nM
Notes: natural RNA segment, single round, ends assumed
Reference: no-protein control
Direction: higher = stronger binding
All sequences stand within: GGGAGUUCUACAGUCCGACGAUC … UGGAAUUCUCGGGUGCCAA
Residues (chain): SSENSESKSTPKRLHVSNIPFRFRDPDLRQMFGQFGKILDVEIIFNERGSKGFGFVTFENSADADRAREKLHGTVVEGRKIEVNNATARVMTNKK
Oligonucleotide | RBNS enrichment (R)
UUGUUUUUGUUUUAAUUUGCACAGCUACACAGAGGAAAUAACUUAGGCACUUUCUGUUUUUUUUAAAAAAAUAAUAAGGUCUCAUGGCUUCAUUUAGAGACCACAGUAAC | 0.516
CACAGCCAGCCUAGGGUCUUCGGCACCUCCAAGAGCUGAAUCUCCCUCCAACCCUUCUUGCCUACUCCUCACUGCCAGCUGGGACCUAGGCUCAGUCCUGUGUGGUGCCC | 0.526
CCCUGGGUUCCUUUGUGCUGCUGUGUGCCUCCUCUCCUGCCGCCCUUUGUCCUCCGCUAAGAGACCCUGCCCUACCUGGCCGCUGGGCCCCGUGACUUUCCCUUCCUGCC | 0.499
AUUUUAUAACAGGGCGGCUGGUUAAUAUCUCACACAGUUUAAAAAAUCAGCCCCUAAUUUCUCCAUGUUUACACUUCAAUCUGCAGGCUUCUUAAAGUGACAGUAUCCCU | 0.306
UGAGGCUUACAGAGUUCAAUGUUGGAAAUCAUUGUAAUCUUCAAAAUAAGUCACCGUGUUGGAUUGAAAGCUUCAAAAUUUGAAAGAAUUCCAUCAAAUACUUGCUGUGU | 0.702
AGAAGCCAGAGCCUUUGACAUGUGGGCUGGAGGUGAGUGGCCCACCACAGCAACCUACUGUAUAUUUUCUCCCUGAAAUCCUGCCCUCUGUCUUUGCACUUAGCUGUUCA | 0.688
GGCUGAUGAGCAGCGUCAAGGACAACGUGGGCCGCGGGCUGAACAUCGCCCUGGUGAACGGGGUCAGCGGCGAGCUCAUCGAGGCCCGGGCCUUUGACAUGUGGGCCGGA | 0.99
AUGCAGCUGAUACAUUCUUUUCAGCUUCUUAUUGAUGAUUGUAGAUAGAAAAAUCCUUGUUUAUUCUUCUUGCUGCCUGGCUUUAAUAAAUAUUUCAGAUGCCUCACAGU | 0.382
UGUUCUGUGUUCAAGCUCCUGUGGGCAACUCAAUUGUUUUAAGAAAACUCUAUUUCUGUUCAUAUUAAUUCACUUGCCAGACUCCAAUUCUGAAAGUUGUCUAGUUCUUC | 0.354
UGUACGAAGGCAGGAUCCUGGGCAAAGUGGAGAGGAUCGAUGAGCCUUGGCCUCCUCGGCGUGCAACCUGGGCAAGCACCUCGGCGUGCACCAUGGAGCCGAAGCCCAGA | 0.632
GCAUUGGACAAUCAAAUUCCCCUGAGUUUCAUAAUCUCAUCAAUAUUUUAAGAUAGGCGAGCACACACUAAUAAUAUCUAUGCCUACCUUCUUGGGUGGACUCAACUGUA | 0.573
ACCCACCAGGUUCUGUGUCCUAUGGGCUACACCUGGCUCCAGCAAGAAUGCCUGCCAUGGGCACUUCUCUGUACCCGGGCUCCAGUGCCAGGCCAGCCUCUCACUCCCAA | 0.385

Block 5
Target: Histone acetyltransferase KAT6A, winged helix 2, GST fusion (KAT6A, Homo sapiens, UniProt Q92794, residues 85-181)
Method: protein binding microarray
Form: double-stranded DNA, one strand shown
Medium: in vitro
Concentration: not given
Notes: 8-mer, flanks averaged, mean of 2 arrays, mostly near background
Reference: not given
Direction: higher = stronger binding
Target sequence (chain): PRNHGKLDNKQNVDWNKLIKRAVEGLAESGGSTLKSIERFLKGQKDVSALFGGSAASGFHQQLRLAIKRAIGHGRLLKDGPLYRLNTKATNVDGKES
Oligonucleotide | E-score
GGAGGGGA | 0.242
GTCCGATA | -0.103
CATTAAGC | -0.0548
CTAAGTGC | 0.0459
GAGACTCC | -0.0493
TATATCCA | -0.115
CATCAAGA | 0.0897
AAAAGGCG | 0.0328
ATATACGC | -0.121
CACTCGCC | 0.228
GTTTGTCA | 0.0226
AAGCTCAA | -0.0664
AGTTTCAA | -0.0127
GCTGATAC | -0.0453
CTTACTGA | 0.0654
GCCATAAA | -0.0833
ACGTGATC | -0.198
ACTGGGGG | -0.0491
CCGAGTAC | 0.0646
CTAACTCA | -0.0395
GTCACCAA | -0.0297
TACATCCA | 0.0386
AATATTTA | 0.0543
AACCGTAG | -0.196
GGCCGATA | -0.0509

Mixed results
Oligonucleotide | target | assay | test system | conditions | scale | endpoint | result
GGGAGUUCUACAGUCCGACGAUCUGUCUGCCUCAUUCUAAAAUUUACACAGCCGACCAUUUGUCAUCCAUGCUGUCCCACAAACCGUUUUUUGUUUACGAUUUAUGACAGGUUUAUGUUACUUCUAUUUGAAUUUCUAUAUUUCAACAGAGGAUUGAGCAUCA | RING finger protein unkempt homolog, zinc fingers 1-6, SBP tag (UNK, Homo sapiens, UniProt Q9C0B0, residues 30-357) | RNA Bind-n-Seq | RNA, in vitro | 100 nM, RNA with constant flanks, ends assumed | reference: input RNA pool, higher = stronger binding | bound/input enrichment | 0.58 ratio

Repeated from above (block 3):
Modification | mean fluorescence intensity
2'F-ANA at 4 5 6 9 10 11 12 13 14 | 79.4 a.u.
2'F-ANA at 3 5 6 11 12 13 15 | 145 a.u.
2'F-ANA at 3 4 5 7 9 10 11 12 14 15 | 51.6 a.u.
2'F-ANA at 2 4 10 12 | 150 a.u.
2'F-ANA at 1 3 5 10 13 14 15 | 50.1 a.u.
2'F-ANA at 1 3 4 7 10 12 14 15 | 56.4 a.u.
2'F-ANA at 3 4 5 6 7 8 11 12 14 15 | 56.3 a.u.
2'F-ANA at 2 3 6 10 14 | 282 a.u.
2'F-ANA at 8 9 10 11 12 13 14 15 | 116 a.u.
2'F-ANA at 1 2 3 5 7 9 11 12 13 14 | 61.4 a.u.
2'F-ANA at 1 2 3 5 7 12 14 15 | 64.6 a.u.
2'F-ANA at 5 6 7 8 10 11 15 | 47.3 a.u.
2'F-ANA at 1 4 5 8 11 12 13 15 | 65.5 a.u.
2'F-ANA at 1 4 8 9 10 11 12 14 | 47.1 a.u.
